Measurements collected from several papers.
Each numbered part is a random draw from the data of one study; scales do not carry over between parts. Positions count from the first letter of the parent shown.

Set 1 — method: RNAcompete; form: RNA; medium: in vitro; concentration: 20 nM; setting: 7-mer, probes averaged, single round; relative to: mean of 7-mers; reading: higher = stronger binding
Target: PABPC1L2, full length, GST fusion (mouse, UniProt A0ABA7IW68)
Construct (chain): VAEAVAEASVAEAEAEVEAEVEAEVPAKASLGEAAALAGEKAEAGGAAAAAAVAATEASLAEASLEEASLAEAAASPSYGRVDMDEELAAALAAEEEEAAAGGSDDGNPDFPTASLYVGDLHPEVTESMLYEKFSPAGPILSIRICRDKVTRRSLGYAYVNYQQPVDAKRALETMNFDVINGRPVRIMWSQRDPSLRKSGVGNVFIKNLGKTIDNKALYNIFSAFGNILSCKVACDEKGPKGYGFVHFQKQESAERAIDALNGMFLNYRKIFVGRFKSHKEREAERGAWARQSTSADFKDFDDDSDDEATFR
| Strand | 7-mer Z-score |
| --- | --- |
| UGAGGGG | 0.24 |
| GGGCCGG | 0.0315 |
| GCUACAA | 0.095 |
| CCCGACA | -0.22 |

Set 2 — target: CCNF, cyclin fold, Cln2 fusion (human); method: yeast growth competition, sequencing; medium: yeast; setting: strong parent motif; relative to: not given; reading: higher = stronger binding
Parent: RBL1 docking peptide (human); GSAKRRLFGEDPP
| Substitution | normalised enrichment score |
| --- | --- |
| GSAKRRLFGEKPP [D11K] | 7.01 |
| GSEKRRLFGEDPP [A3E] | 2.7 |
| GKAKRRLFGEDPP [S2K] | 6.7 |
| GSAKRRLFGPDPP [E10P] | 8.1 |
| GSAKRRLFGEDPH [P13H] | 6.67 |

Set 3 — method: competition protein-binding microarray; form: double-stranded DNA, one strand shown; medium: in vitro; concentration: 2 µM; added: Pho4 competitor, 0.05 µM; reading: higher = stronger binding
Target: Centromere-binding protein 1, full length, His-tagged (CBF1, Saccharomyces cerevisiae, UniProt P17106, residues 1-351)
Sequence of UniProt P17106 (whole entry, looked up): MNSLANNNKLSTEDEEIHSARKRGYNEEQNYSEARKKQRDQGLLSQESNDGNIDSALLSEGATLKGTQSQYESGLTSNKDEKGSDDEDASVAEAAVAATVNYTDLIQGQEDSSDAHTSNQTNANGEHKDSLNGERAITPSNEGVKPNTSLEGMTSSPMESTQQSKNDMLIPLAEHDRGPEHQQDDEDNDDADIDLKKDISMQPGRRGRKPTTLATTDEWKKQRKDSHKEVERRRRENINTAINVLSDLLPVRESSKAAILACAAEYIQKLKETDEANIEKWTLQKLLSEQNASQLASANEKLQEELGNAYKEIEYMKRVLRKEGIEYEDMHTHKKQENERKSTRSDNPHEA
Setting: whole 60-bp probe, lowest competitor level
| Strand | fluorescence intensity [a.u.] |
| --- | --- |
| CCCCGCTCTTGTTTTCGCGTGCCGATTCTACAATAAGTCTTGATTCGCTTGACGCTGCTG | 102 |
| CATACCCAACCTTCTCACGTGTTTTAAGATATTTGTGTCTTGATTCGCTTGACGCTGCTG | 1510 |
| AAAGCGGTAATTTGCAGAGTGGGTGCAGATATCTATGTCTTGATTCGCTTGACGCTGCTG | 74.6 |
| CACAAGTAGATTTGCCACGCACAACTTTAATACATGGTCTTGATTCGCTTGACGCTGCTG | 87.5 |
| TTTAACGCTTATGTACACGGGTGCAAAACTACCCCTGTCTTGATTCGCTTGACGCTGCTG | 75.4 |

Single results of other studies
| Molecule | target | assay | system | conditions | scale | quantity | value |
| --- | --- | --- | --- | --- | --- | --- | --- |
| PhoQ, residues 284 288 289 292 302 303 TTSMTC | PhoP, residues 12 14 15 18 19 NNFVT (Escherichia coli, UniProt P23836) | Sort-seq, item: YFP reporter | E. coli | PhoQ-PhoP variant library, added: 10 µM Mg2+ | relative to: high Mg2+ state, higher = stronger signaling | fold induction | 0.11 |

A few entries again (set 3):
| Strand | fluorescence intensity [a.u.] |
| --- | --- |
| CATACCCAACCTTCTCACGTGTTTTAAGATATTTGTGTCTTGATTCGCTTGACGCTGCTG | 1510 |
| AAAGCGGTAATTTGCAGAGTGGGTGCAGATATCTATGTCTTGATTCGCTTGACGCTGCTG | 74.6 |
